Measurements collected from several papers.
Organism: Staphylococcus aureus

`CC(=O)N[C@@H](CC(C)C)C(=O)N[C@H]1CSSC[C@@H](C(=O)N2CCC[C@H]2C(N)=O)NC(=O)[C@H]([C@@H](C)O)NC(=O)[C@H](C(C)C)NC(=O)[C@H]([C@@H](C)O)NC(=O)CNC(=O)[C@H](CCCCN)NC(=O)[C@H](Cc2ccccc2)NC(=O)[C@H](Cc2ccc(O)cc2)NC(=O)[C@H](CCCCN)NC(=O)[C@H](CCC(=O)O)NC(=O)[C@H](Cc2ccccc2)NC(=O)[C@H](CCCNC(=N)N)NC(=O)[C@H](CCCCN)NC(=O)[C@H](CC(C)C)NC(=O)[C@H](CC(=O)O)NC(=O)[C@@H]2CCCN2C(=O)[C@H](CCCCN)NC(=O)[C@H](C(C)C)NC(=O)[C@H](CCCCN)NC(=O)[C@H](CCCCN)NC(=O)[C@H]([C@@H](C)O)NC1=O` has an MIC of greater than 40 µM (broth dilution; laboratory strain; 24 h).
For `COc1ccc2ccc(O)c(/C=N/[C@H]3CCCC[C@H]3/N=C/c3cc(C)ccc3O)c2c1`, the MIC was greater than 40 µM (bacterial growth, broth microdilution; vancomycin-intermediate).
For `C#CCOc1ccc(CN[C@@]2(C)C[C@H](O[C@H]3[C@H](Oc4c5cc6cc4Oc4ccc(cc4Cl)[C@@H](O)[C@@H](NC(=O)[C@@H](CC(C)C)NC)C(=O)N[C@@H](CC(N)=O)C(=O)N[C@H]6C(=O)N[C@H]4C(=O)N[C@H](C(=O)N[C@H](C(=O)N[C@@H](CCCNC(=N)N)C(N)=O)c6cc(O)cc(O)c6-c6cc4ccc6O)[C@H](O)c4ccc(c(Cl)c4)O5)O[C@H](CO)[C@@H](O)[C@@H]3O)O[C@@H](C)[C@H]2O)cc1OC`, the MIC was 0.281 µM (MSSA ATCC 29213).
`CCn1ccn(CC)c1=[Se]` has an MIC of greater than 40 µM (microbial growth, broth dilution; ATCC700699 VISA; 24 h, drug-resistant strain).
`N=C(N)NCCC[C@H](NC(=O)[C@H](CCCNC(=N)N)NC(=O)[C@H](Cc1ccccc1)NC(=O)[C@H](CO)NC(=O)[C@H](Cc1ccccc1)NC(=O)[C@H](Cc1c[nH]c2ccccc12)NC(=O)[C@H](Cc1ccccc1)NC(=O)[C@H](CO)NC(=O)[C@H](Cc1ccccc1)NC(=O)[C@H](CCCNC(=N)N)NC(=O)[C@@H](N)CCCNC(=N)N)C(N)=O` gave an MIC of 128 µM (broth microdilution; 29213, Mueller-Hinton broth; 24 h, 37 °C, lowest concentration, 95% inhibition, together with: BSA).
For `COc1ccc2c(c1OC)C[NH+]1CCc3cc4c(cc3C1C2)OCO4.[Cl][Fe-]([Cl])([Cl])[Cl]` (stereo not shown), the MIC was greater than 1600 µM (24 h, 37 °C).
For `CC[C@H]1OC(=O)[C@H](C)[C@@H](OC(=O)Cc2ccccc2)[C@H](C)[C@@H](O[C@@H]2O[C@H](C)C[C@H](N(C)C)[C@H]2O)[C@](C)(OC)C[C@@H](C)C(=O)[C@H](C)[C@@H](O)[C@]1(C)O`, the MIC was 8 µg/mL (microbial growth; BAA976).
`C#CCOc1ccc(CN[C@@]2(C)C[C@H](O[C@H]3[C@H](Oc4c5cc6cc4Oc4ccc(cc4Cl)[C@@H](O)[C@@H](NC(=O)[C@@H](CC(C)C)NC)C(=O)N[C@@H](CC(N)=O)C(=O)N[C@H]6C(=O)N[C@H]4C(=O)N[C@H](C(=O)N[C@H](C(=O)O)c6cc(O)cc(O)c6-c6cc4ccc6O)[C@H](O)c4ccc(c(Cl)c4)O5)O[C@H](CO)[C@@H](O)[C@@H]3O)O[C@@H](C)[C@H]2O)cc1OC` has an MIC of 1 µM (MSSA ATCC 29213).
`CCCCCCCCCCCCCC(=O)N[C@H]1C(=O)N[C@@H](CN)C(=O)N[C@@H](CO)C(=O)N[C@@H](Cc2ccc(O)cc2)C(=O)O[C@H]1C` gave an MIC of 8 µg/mL (SH1000; together with: phosphatidylethanolamine, molar ratio 2).
For `CC[C@H](C)[C@H](NC(=O)[C@@H](CCCNC(=N)N)NC(=O)[C@H](CCCNC(=N)N)NC(=O)[C@@H]1CCCN1C(=O)[C@@H]1CCCN1C(=O)[C@H](Cc1ccccc1)NC(=O)[C@@H]1CCCN1C(=O)[C@H](CCCNC(=N)N)NC(=O)[C@@H]1CCCN1C(=O)[C@H](CC(C)C)NC(=O)[C@H](Cc1ccc(O)cc1)NC(=O)[C@@H]1CCCN1C(=O)[C@@H]1CCCN1C(=O)[C@H](CCCCN)NC(=O)[C@H](CC(=O)O)NC(=O)[C@@H](N)C(C)C)C(=O)N[C@@H](Cc1ccc(O)cc1)C(=O)N[C@@H](CC(N)=O)C(=O)N[C@H](CCCNC(=N)N)C(N)=O`, the MIC was greater than 128 µg/mL (broth microdilution; DSM 6247; 18 h, 37 °C, 25% MHB2).
The MIC of `CN[C@H](CC(C)C)C(=O)N[C@H]1C(=O)N[C@@H](CC(N)=O)C(=O)N[C@H]2C(=O)N[C@H]3C(=O)N[C@H](C(=O)N[C@H](C(=O)O)c4cc(O)cc(O)c4-c4cc3ccc4O)[C@H](O)c3ccc(c(Cl)c3)Oc3cc2cc(c3O[C@@H]2O[C@H](CO)[C@@H](O)[C@H](O)[C@H]2O[C@H]2C[C@](C)(NCc3ccc(OCc4cn(CC(=O)N[C@H](C(=O)N[C@@H](CCN)C(=O)N[C@H]5CCNC(=O)[C@H]([C@@H](C)O)NC(=O)[C@H](CCN)NC(=O)[C@H](CCN)NC(=O)[C@H](CC(C)C)NC(=O)[C@@H](CC(C)C)NC(=O)[C@H](CCN)NC5=O)[C@@H](C)O)nn4)c(OC)c3)[C@H](O)[C@H](C)O2)Oc2ccc(cc2Cl)[C@H]1O` is reported as 0.095 µM (MSSA ATCC 29213).
For `CC[C@H](C)[C@H](NC(=O)[C@H](CCCCN)NC(=O)[C@H](CC(N)=O)NC(=O)CNC(=O)[C@@H](NC(=O)[C@H](C)NC(=O)[C@H](CCCNC(=N)N)NC(=O)[C@H](CC(C)C)NC(=O)[C@H](CCCCN)NC(=O)[C@H](CCCCN)NC(=O)[C@H](CCCCN)NC(=O)[C@H](C)NC(=O)[C@H](CCCCN)NC(=O)[C@@H]1CSSC[C@H](NC(=O)[C@H](CCCNC(=N)N)NC(=O)CN)C(=O)N[C@@H](CC(N)=O)C(=O)N[C@@H](CC(C)C)C(=O)N[C@@H](CC(C)C)C(=O)N1)C(C)C)C(=O)N[C@@H](CCCCN)C(=O)N[C@@H](CCC(=O)O)C(=O)N[C@H](C(=O)N[C@@H](CCCCN)C(=O)N[C@@H](CC(N)=O)C(=O)N[C@H](C(=O)N[C@H](C(=O)N[C@@H](Cc1ccccc1)C(=O)N[C@@H](CC(N)=O)C(=O)N[C@@H](CCCNC(=N)N)C(=O)O)C(C)C)C(C)C)[C@@H](C)CC`, the MIC was 100 µM (broth dilution; ATCC 25923).
With `CC[C@H](C)[C@@H]1NC(=O)[C@H](CO)NC(=O)[C@H](CCCCN)NC(=O)[C@@H]2CSSC[C@@H](C(=O)N[C@@H](Cc3ccc(O)cc3)C(N)=O)NC(=O)[C@H](CCCCN)NC(=O)[C@@H]3CSSC[C@H](NC(=O)[C@H](CCCNC(=N)N)NC(=O)[C@H](CC(C)C)NC(=O)[C@H](CC(=O)O)NC(=O)[C@H](CC(=O)O)NC(=O)[C@H](CCC(=O)O)NC(=O)[C@H](CC(N)=O)NC(=O)[C@H](Cc4c[nH]c5ccccc45)NC(=O)C(C)(CC)NC(=O)CNC(=O)[C@H](CC(N)=O)NC(=O)[C@@H](NC(=O)CNC(=O)[C@H](Cc4ccccc4)NC(=O)CN)CSSC[C@H](NC(=O)[C@H](Cc4ccc(O)cc4)NC(=O)CNC(=O)CNC(=O)[C@H](CCCCN)NC(=O)[C@H](Cc4ccc(O)cc4)NC(=O)[C@H]4CCCN4C(=O)[C@@H]4CCCN4C1=O)C(=O)N[C@@H](C)C(=O)N[C@@H](CCCCN)C(=O)N1CCC[C@@H]1C(=O)NCC(=O)N[C@@H](Cc1ccccc1)C(=O)N[C@@H](C(C)C)C(=O)N3)C(=O)N[C@@H](Cc1c[nH]cn1)C(=O)N[C@@H](CC(N)=O)C(=O)N[C@@H](Cc1c[nH]cn1)C(=O)N2` (stereo partly shown) the MIC was 8 µM (467, methicillin-resistant mecA, cation-adjusted Mueller Hinton broth; 18 h, 37 °C).
For `CC[C@H](C)[C@H](NC(=O)[C@H](Cc1c[nH]c2ccccc12)NC(=O)[C@H](CCCCN)NC(=O)[C@H](CC(C)C)NC(=O)[C@@H](NC(=O)[C@@H](NC(=O)CNC(=O)[C@H](CCCCN)NC(=O)[C@H](Cc1c[nH]cn1)NC(=O)[C@H](CCCCN)NC(=O)[C@H](Cc1c[nH]c2ccccc12)NC(=O)[C@H](C)NC(=O)[C@H](CC(C)C)NC(=O)[C@H](CO)NC(=O)[C@@H](NC(=O)[C@H](Cc1ccc(O)cc1)NC(=O)[C@H](CCCCN)NC(=O)[C@H](CCC(N)=O)NC(=O)CNC(=O)[C@H](CCCCN)NC(=O)[C@@H](NC(=O)[C@H](C)NC(=O)[C@H](CC(C)C)NC(=O)[C@H](Cc1ccccc1)NC(=O)[C@H](CCC(N)=O)NC(=O)[C@@H](NC(=O)[C@H](CC(C)C)NC(=O)[C@H](CCCCN)NC(=O)[C@H](CCSC)NC(=O)[C@H](Cc1ccccc1)NC(=O)[C@H](C)NC(=O)[C@H](C)NC(=O)[C@@H](N)CCSC)[C@@H](C)CC)[C@@H](C)O)C(C)C)[C@@H](C)O)[C@@H](C)CC)C(=O)N[C@@H](CC(N)=O)C(N)=O`, the MIC was 32 µg/mL (EMRSA 12845; 24 h, 37 °C).
The MIC of `CC[C@H](C)[C@H](NC(=O)CNC(=O)[C@@H](NC(=O)CNC(=O)[C@@H](NC(=O)CNC(=O)[C@@H](NC(=O)[C@@H](NC(=O)[C@H](CCC(N)=O)NC(=O)[C@H](CCC(=O)O)NC(=O)[C@@H](NC(=O)[C@H](CC(C)C)NC(=O)[C@H](CCCNC(=N)N)NC(=O)[C@H](Cc1ccccc1)NC(=O)[C@@H](NC(=O)[C@H](CC(N)=O)NC(=O)[C@H](CCCCN)NC(=O)CNC(=O)[C@H](CCSC)NC(=O)[C@H](CCCCN)NC(=O)CNC(=O)[C@H](CC(C)C)NC(=O)[C@H](CCCCN)NC(=O)[C@H](CCCCN)NC(=O)CNC(=O)[C@H](Cc1ccccc1)NC(=O)[C@H](CCCCN)NC(=O)[C@H](CCCCN)NC(=O)[C@H](CC(C)C)NC(=O)[C@H](Cc1c[nH]c2ccccc12)NC(=O)CN)C(C)C)C(C)C)C(C)C)C(C)C)C(C)C)C(C)C)C(=O)N[C@@H](CC(N)=O)C(=O)N[C@@H](C)C(=O)N[C@@H](CC(C)C)C(=O)N[C@@H](CO)C(=O)O` is reported as 1.24 log10 µg/mL (broth microdilution; ATCC 25923).
`CC[C@H](C)[C@H](N)C(=O)NCC(=O)N[C@@H](CC(C)C)C(=O)N[C@H](CCC(=O)O)C(=O)N[C@H](C(=O)N[C@H]1CCCCNC(=O)[C@H](CC(N)=O)NC(=O)[C@@H](CC(=O)O)NC(=O)[C@H](Cc2c[nH]cn2)NC(=O)[C@@H](Cc2ccccc2)NC(=O)[C@H]([C@@H](C)CC)NC(=O)[C@@H](CCCN)NC1=O)[C@@H](C)CC` has an MIC of greater than 64 µg/mL (USA300 methicillin-resistant; 18 h, 37 °C, 0.3 mM ZnSO4 LB).
`CC[C@H](C)[C@H](NC(=O)[C@H](Cc1c[nH]c2ccccc12)NC(=O)[C@H](Cc1ccc(O)cc1)NC(=O)[C@H](CCCCN)NC(=O)[C@H](CC(C)C)NC(=O)[C@@H](N)CO)C(=O)N[C@@H](CCCNC(=N)N)C(=O)N[C@@H](Cc1ccc(O)cc1)C(=O)N[C@@H](CCCCN)C(=O)N[C@@H](CCCNC(=N)N)C(=O)N[C@@H](CCC(N)=O)C(=O)NCC(=O)N[C@@H](C)C(=O)N[C@@H](C)C(=O)N[C@@H](CCCNC(=N)N)C(=O)N[C@@H](Cc1ccccc1)C(N)=O` has an MIC of 25 µM (broth dilution; ATCC 25923, Mueller-Hinton broth; 24 h, 37 °C).
`C#CCNC(=O)[C@H]1NC(=O)[C@H]2NC(=O)[C@H](NC(=O)[C@@H]3NC(=O)[C@H](CC(N)=O)NC(=O)[C@H](NC(=O)[C@@H](CC(C)C)NC)[C@H](O)c4ccc(c(Cl)c4)Oc4cc3cc(c4O[C@@H]3O[C@H](CO)[C@@H](O)[C@H](O)[C@H]3O[C@H]3C[C@](C)(N)[C@H](O)[C@H](C)O3)Oc3ccc(cc3Cl)[C@H]2O)c2ccc(O)c(c2)-c2c(O)cc(O)cc21` gave an MIC of 3 µM (NRS402 VISA).
With `CC(C)CCCCCCCCC/C=C/C(=O)N[C@@H](CC(N)=O)C(=O)N[C@H]1CNC(=O)[C@@H]2CCCN2C(=O)[C@H](C(C)C)NC(=O)[C@@H](CN)NC(=O)CNC(=O)[C@H](CC(=O)O)NC(=O)CNC(=O)[C@H](CC(=O)O)NC(=O)[C@H](CC(=O)O)NC(=O)[C@H]2CCCCN2C1=O` the MIC was 16 µg/mL (broth microdilution; MRSA USA300, Mueller-Hinton broth, Mg2+ 10 mg/L; 16 h, 37 °C, together with: Ca2+ 1.0 mM).

Some of these lines once more:
`CCn1ccn(CC)c1=[Se]` has an MIC of greater than 40 µM (microbial growth, broth dilution; ATCC700699 VISA; 24 h, drug-resistant strain).
`N=C(N)NCCC[C@H](NC(=O)[C@H](CCCNC(=N)N)NC(=O)[C@H](Cc1ccccc1)NC(=O)[C@H](CO)NC(=O)[C@H](Cc1ccccc1)NC(=O)[C@H](Cc1c[nH]c2ccccc12)NC(=O)[C@H](Cc1ccccc1)NC(=O)[C@H](CO)NC(=O)[C@H](Cc1ccccc1)NC(=O)[C@H](CCCNC(=N)N)NC(=O)[C@@H](N)CCCNC(=N)N)C(N)=O` gave an MIC of 128 µM (broth microdilution; 29213, Mueller-Hinton broth; 24 h, 37 °C, lowest concentration, 95% inhibition, together with: BSA).
